Assay results gathered from unrelated publications.
Several values in a cell are separate wells, animals, samples, runs or records. Numbers after ± are the reported error.

SMILES | assay | system | conditions | how to read | measurement | result
CC(c1cc2ccccc2s1)N(O)C(N)=O (stereo not shown) | refers to: 5-HEPE | human whole blood | 3 µM, together with: Escherichia coli |  | amount | 42 ± 14 pg/mL blood
OC(CCN1CCCCC1)(c1ccccc1)C1CC2C=CC1C2 (stereo not shown) | resting-state EEG | healthy elderly humans | oral, 4 mg, eyes open, LS mean |  | EEG Alpha1-power Pz-O1 | 4.4 µV²
c1ccc(-c2n[nH]cc2-c2ccnc3ccccc23)nc1 | kinase binding, competitor, MIB/MS competition, refers to: ATG1 | Candida albicans cell lysate | 10 µM | baseline: DMSO | log2 fold change | 1.74
O=C(O)CNC(=O)Cc1ccccc1 |  | ventricular cardiomyocytes, C57BL/6 mouse | dose not given, 0.344 s |  | sarcomere length | 1.72 µm
N#Cc1ccc2c(c1)[C@H]1CCCN(C(=O)c3ccc4[nH]cnc4c3)[C@H]1C2 |  | human clinical trial | oral, 240 mg once daily |  | cortisol change from baseline | -3 nmol/L
Cc1cc(C)c(CNC(=O)c2cc(Cl)c3c(c2C)O[C@@](C)([C@H]2CC[C@H](N(C)C)CC2)O3)c(=O)[nH]1 |  | human relapsed/refractory PTCL | concentration not given, best overall response |  | stable disease | 15.4%
CC(C)(O)c1cnc2ncc(-c3ccc(F)c(-c4c(F)cccc4C#N)c3)n2n1 | suppressed responding increase, conflict procedure | rhesus monkey | intravenous, anxiolysis model |  | minimum effective dose | ≥ 0.1 mg/kg
C[C@H](Oc1ccc(Br)cc1-c1ccon1)C(=O)O | muscle velocity recovery cycles | human, tibialis anterior muscle | 200 mg once daily, multiple doses, frequency ramp, last response at 15 Hz | baseline: placebo | latency change | 1.17%
CSCCNc1nc(SCCC(F)(F)F)nc2c1ncn2[C@@H]1O[C@H](COP(=O)(O)OP(=O)(O)C(Cl)(Cl)P(=O)(O)O)[C@@H](O)[C@H]1O | platelet aggregation, light transmission aggregometry | human patients, platelet-rich plasma | dose not given, 15 min, together with: TRAP 15 µM |  | inhibition | 19.1 ± 16.3%
Cc1nn(-c2nc3c(F)cc(F)cc3s2)c(O)c1C(c1ccc(C(F)(F)F)cc1)c1c(C)nn(-c2nc3c(F)cc(F)cc3s2)c1O | refers to: pancreatic oedema | mouse, cerulein-induced acute pancreatitis | 25 mg/kg | direction not given | histology score | 0 and 1
CC1(C)CCC2(CC1)N[C@@H](C(=O)N[C@@H]1CC[C@@H](C(N)=O)OC1)[C@H](c1ccnc(Cl)c1F)[C@]21C(=O)Nc2cc(Cl)ccc21 |  | human, solid tumours | 90 mg/day, RECIST | baseline: patients | stable disease | 50%
Cc1n[nH]c2ccc(-c3cc(OC[C@@H](N)Cc4ccccc4)cnc3-c3ccoc3)cc12 | kinase binding, competitor, MIB/MS competition, refers to: YCK2 | Candida albicans cell lysate | 1 µM | baseline: DMSO | log2 fold change | -1.75
C[C@@H](NC(=O)N1C(=O)[C@H](Cc2ccnc(N)c2)[C@H]1C(=O)O)C1CCCCC1 |  | human | iv infusion, 0.6 mg/kg/h, 24 h | baseline: baseline | time to ACT Emax | 83.8 h
Cn1cc(Nc2nccc(-c3ccc4c(c3)CN(C3COC3)CC[C@H]4NC(=O)c3cn(C(C)(C)C)nn3)n2)cn1 | refers to: Dermatan Sulfate Degradation | splenic B cells, Mus musculus | 30 mg/kg, together with: IgD activation | baseline: vehicle, direction not given | pathway activation z-score | 1.34
C[C@H]1[C@H](OC(=O)CCC(=O)O)O[C@@H]2O[C@@]3(C)CC[C@H]4[C@H](C)CC[C@@H]1[C@@]24OO3 |  | MOLM-13 xenograft mice | 120 mg/kg once daily, 5 days |  | median survival | 17 days
O=C(c1cc(Cc2n[nH]c(=O)c3ccccc23)ccc1F)N1CCN(C(=O)C2CC2)CC1 | refers to: poly(ADP-ribose) | human patient, PBMC | dose not given, 24 h | baseline: baseline | PAR concentration | decreased
O=S(=O)(NCCNC/C=C/c1ccc(Br)cc1)c1cccc2cnccc12 |  | mouse zygotes | 20 µM, 96 h post-hCG |  | embryos reaching blastocyst | 0% and 11.8%
COc1cccc(C2NCCc3cc(O)c(O)cc32)c1O (stereo not shown) | ferrozine | cell-free | 100 µM, DMSO solvent |  | Fe2+ chelation | 92.7 ± 1.56%
CN[C@@H]1COc2c(S(=O)(=O)NC(=O)Nc3c4c(cc5c3CCC5)CCC4)cnn2C1 | refers to: IL-1β | human participants, whole blood ex vivo | 450 mg single dose, 336 h, together with: LPS/ATP | baseline: baseline | inhibition | -11.1%
CC(C)NCC(O)c1ccc(O)c(O)c1 (stereo not shown) |  | ventricular cardiomyocytes, C57BL/6 mouse | dose not given, 0.6 s |  | sarcomere length | 1.67 µm
O=C(/C=C/c1ccc(O)c(O)c1/C=C/c1ccc(O)c(O)c1)O[C@H](Cc1ccc(O)c(O)c1)C(=O)O |  | isolated myocardial tissue | 1 µM |  | LVSP | 55.3 mmHg
COc1cc2cc(-c3ccc(CC(=O)Nc4cc(C(C)(C)C(F)(F)F)no4)cn3)cnc2cc1OC | RECIST v1.1 | RET-altered advanced solid tumour patients | oral, 40 mg once daily, phase I |  | partial response as best response | 33%

SMILES | assay | system | conditions | how to read | measurement | result
C1#Cc2ccccc2C#Cc2ccccc21 | UV spectroscopy | methanol | room temperature, together with: benzyl azide |  | second-order rate constant | 0.0482 M⁻¹ s⁻¹ and 0.0481 M⁻¹ s⁻¹
COC[C@@H](c1ccc(C(F)(F)F)cc1)N1CCN(C2(C)CCN(C(=O)c3c(C)ncnc3C)CC2)C[C@@H]1C |  | HIV-1 patients, plasma | dose not given, week 2, arms pooled | baseline: baseline | change in HIV-1 RNA | -1.13 log10 copies/mL
CC(C)c1c(C(=O)Nc2ccccc2)c(-c2ccccc2)c(-c2ccc(F)cc2)n1CC[C@@H](O)C[C@@H](O)CC(=O)O |  | ApoE-/- mouse | oral gavage, dose not given |  | aortic plaque burden reduction | 63%
C[C@@H](O)CCOC(=O)C[C@@H](C)O | refers to: C12-OH/C10-DC acylcarnitine | human, plasma | 60 min, log2-transformed values |  | metabolite level | -6.8 ± 0.61 µmol/L
COc1ccc(C2NCCc3cc(O)c(O)cc32)cc1O (stereo not shown) | ferrozine | cell-free | 100 µM, DMSO solvent |  | Fe2+ chelation | 91.76 ± 0.34%
N#Cc1ccc2c(c1)[C@H]1CCCN(C(=O)c3ccc4[nH]cnc4c3)[C@H]1C2 |  | human, plasma | 40 mg, day 15, 360 h | baseline: placebo and baseline | change in HOMA-IR | -30.9%
C=CCn1c(=O)c2cnc(Nc3ccc(N4CCN(C)CC4)cc3)nc2n1-c1ccc2c(n1)[C@@](O)(CC)CC2 |  | A2780 xenograft, BALB/c nude mice | oral, 80 mg/kg once daily x 8, day 9 | baseline: vehicle | tumour growth inhibition | 20.2%
CC(C)[C@H](C(=O)Nc1ccc(C(=O)NO)cc1)c1ccccc1 | volumetric MRI | human, right vagal schwannoma | dose not given, day 995 |  | tumour volume | 9.8 cm3
NCC(=O)Nc1cncc(-c2nn3c(=O)cc(N4CCNCC4)nc3s2)c1 | ADP-induced platelet aggregation, light transmission aggregometry | human, stable CAD on aspirin, platelets ex vivo | subcutaneous, 0.075 mg/kg, 120 min post-dose, together with: ADP 20 µM |  | inhibition | 28.8%
Cn1cc([C@H]2C[C@H]3CSC(N)=N[C@@]3(c3ccc(F)cc3F)CO2)cn1 |  | wild-type mouse, CSF | subcutaneous, 3 mg/kg, 3 h |  | Aβ40 level | 1.16 ng/mL
Cc1cnc(N2CC3(CCOCC3)C2)c(C(=O)Nc2ccc(C(=O)N3CCc4cc(C(=O)Nc5c(C)cccc5F)sc4-c4ccccc43)cc2)c1 | refers to: RANTES | human RSV infection, nasal wash | dose not given, AUC, ITT-IS population | baseline: placebo | inhibition | 36%
O=C(COc1ccc(Cl)cc1)NC12CC(c3nnc([C@H]4C[C@@H](OC(F)(F)F)C4)o3)(C1)C2 |  | healthy human, PBMC | oral, 15 mg single dose, day 1, 4 h post-dose, median, together with: sodium arsenite ex vivo | baseline: baseline | ATF4 protein change | -11%
NC(=O)/C(=C/n1cnc(-c2cc(C(F)(F)F)cc(C(F)(F)F)c2)n1)c1cncnc1 |  | C57BL/6 mice, Eµ-TCL1 CLL transplant | 15 mg/kg, 2 times per week |  | median overall survival | 135 days
NC(=O)c1cnc2[nH]ccc2c1N[C@@H]1[C@@H]2CC3C[C@H]1C[C@@](O)(C3)C2 | flow cytometry | Japanese healthy men, blood | oral, 60 mg single dose, 24 h | baseline: baseline | total memory T-cell change | 0.83%
CN(C(=O)n1cnc(-c2ccc[n+]([O-])c2)c1)C1CCCCC1 |  | mice, formalin paw test | 0.3 mg/kg, late phase, together with: anandamide 5 mg/kg i.p. | baseline: anandamide alone, direction not given | change in licking score | -42%
N#Cc1ccc2c(-c3ccncc3)c(-c3ccc(F)cc3)nn2c1 | kinase binding, competitor, MIB/MS competition, refers to: SAK1 | Candida albicans cell lysate | 1 µM | baseline: DMSO | log2 fold change | -0.142
NC1(C(=O)N[C@@H](CCO)c2ccc(Cl)cc2)CCN(c2nc[nH]c3nccc2-3)CC1 |  | human mCRPC patients | dose not given, together with: enzalutamide |  | CTC non-response rate | 62.5%
O=C(CCCCCCc1ccccc1)c1ncc(-c2ccccn2)o1 |  | mouse, chronic constriction injury, contralateral paw | i.p., 30 mg/kg |  | cold allodynia | no effect
C[C@H]1C[C@H]2CSC(N)=N[C@@]2(c2nc(NC(=O)c3ccc(OC(F)F)cn3)cs2)CO1 | refers to: total Aβ | healthy adults, plasma | 5 mg once daily, day 7 | baseline: placebo | percent change from baseline | -35.6%
COc1cccc2c(N3CCC(CCP(=O)(O)O)CC3)ncnc12 |  | mouse, EMT6 tumour, serum | 50 mg/kg |  | IFN-γ concentration | ~5 pg/mL
CC1(C)CCC(c2ccc(Cl)cc2)=C(CN2CCN(c3ccc(C(=O)NS(=O)(=O)c4ccc(N[C@H](CCN5CCOCC5)CSc5ccccc5)c(S(=O)(=O)C(F)(F)F)c4)cc3)CC2)C1 | cell killing | canine blood CD3+ T cells, dog 32 | 24 h |  | EC50 | 0.147 µM
